Measurements collected from several papers.
Organism: Plasmodium falciparum

Compound	test	test system	conditions	scale	selectivity index
N#Cc1c(-c2ccco2)[n+]([O-])c2ccc(Cl)cc2[n+]1[O-]		3D7 chloroquine-sensitive		baseline: KB IC50 over 3D7 IC50	7.1
CC1=CC(=CNC23CC4CC(CC(C4)C2)C3)N=C1c1ccc[nH]1		HepG2, D6		baseline: HepG2 IC50 over D6 IC50	283
COc1ccc2nc3cc(Cl)ccc3c(NCCN3C(=O)c4ccc5c6c(ccc(c46)C3=O)C(=O)N(CCN(C)C)C5=O)c2c1		NIH3T3, 3D7		baseline: CC50 over IC50	> 4.62
CCc1c(C)[nH]c(C=NC23CC4CC(CC(C4)C2)C3)c1C		HepG2, D6		baseline: HepG2 IC50 over D6 IC50	906
c1cncc(CCCOCCCCCCCCCCCCOC2CCCCO2)c1 (centres unmarked)		W2 chloroquine-resistant		baseline: IC50 WI-26VA4 over IC50 W2	1.2
N#Cc1c(-c2ccco2)[n+]([O-])c2ccccc2[n+]1[O-]		K1 chloroquine-resistant		baseline: KB IC50 over K1 IC50	10.3
C[C@H]1[C@@H](CCCOc2cccc(OCCC[C@H]3O[C@@H]4O[C@@]5(C)CC[C@H]6[C@H](C)CC[C@@H]([C@H]3C)[C@@]46OO5)c2)O[C@@H]2O[C@@]3(C)CC[C@H]4[C@H](C)CC[C@@H]1[C@@]24OO3		W2	72 h	baseline: HepG2 over blood-stage parasites	2.88
c1ccc2c(NCCNc3ncnc4cc(OCC5CCN(CCNc6ccnc7ccccc67)CC5)ccc34)cccc2c1		HepG2, NF54		baseline: HepG2 cytotoxicity over P. falciparum activity	42
C[C@H]1[C@@H](CCCNC(=O)CC[C@H]2O[C@@H]3O[C@@]4(C)CC[C@H]5[C@H](C)CC[C@@H]([C@H]2C)[C@@]35OO4)O[C@@H]2O[C@@]3(C)CC[C@H]4[C@H](C)CC[C@@H]1[C@@]24OO3		W2	72 h	baseline: HepG2 over blood-stage parasites	1320
CCC1=C(C)C(c2ccc[nH]2)=NC1=CNC1CCCCCC1		HepG2, D6		baseline: HepG2 IC50 over D6 IC50	105
c1cncc(CCCOCCCCCCOC2CCCCO2)c1 (centres unmarked)		W2 chloroquine-resistant		baseline: IC50 WI-26VA4 over IC50 W2	> 5.6
C[C@H]1[C@@H](CCCOc2ccc(OCCC[C@H]3O[C@@H]4O[C@@]5(C)CC[C@H]6[C@H](C)CC[C@@H]([C@H]3C)[C@@]46OO5)cc2)O[C@@H]2O[C@@]3(C)CC[C@H]4[C@H](C)CC[C@@H]1[C@@]24OO3		W2	72 h	baseline: HepG2 over blood-stage parasites	6.46
CCOC(=O)c1cn(-c2nc(C)n[nH]2)nn1	SYBR Green I	W2		baseline: CC50 HepG2 over IC50 W2	≥ 3
CCC1=CC(=CNC23CC4CC(CC(C4)C2)C3)N=C1c1ccc[nH]1		HepG2, D6		baseline: HepG2 IC50 over D6 IC50	130
C[C@H]1[C@@H](CCCOc2ccccc2OCCC[C@H]2O[C@@H]3O[C@@]4(C)CC[C@H]5[C@H](C)CC[C@@H]([C@H]2C)[C@@]35OO4)O[C@@H]2O[C@@]3(C)CC[C@H]4[C@H](C)CC[C@@H]1[C@@]24OO3		W2	72 h	baseline: HepG2 over blood-stage parasites	9.78
CCC1=C(C)C(c2ccc[nH]2)=NC1=CNC1CCCCCCC1		HepG2, D6		baseline: HepG2 IC50 over D6 IC50	215
N#Cc1c(-c2ccco2)[n+]([O-])c2ccc(C(F)(F)F)cc2[n+]1[O-]		K1 chloroquine-resistant		baseline: KB IC50 over K1 IC50	8.11
c1cncc(CCCOCCCCCCCCOC2CCCCO2)c1 (centres unmarked)		W2 chloroquine-resistant		baseline: IC50 WI-26VA4 over IC50 W2	1
COC1=CC(c2ccc[nH]2)=NC1=CNC1CCCC1		HepG2, D6		baseline: HepG2 IC50 over D6 IC50	448
COc1ccc2c(c1)[n+]([O-])c(C#N)c(-c1ccco1)[n+]2[O-]		K1 chloroquine-resistant		baseline: KB IC50 over K1 IC50	11.3
C[C@H]1[C@@H](CCCOc2ccccc2OCCC[C@H]2O[C@@H]3O[C@@]4(C)CC[C@H]5[C@H](C)CC[C@@H]([C@H]2C)[C@@]35O4)O[C@@H]2O[C@@]3(C)CC[C@H]4[C@H](C)CC[C@@H]1[C@@]24OO3		W2	72 h	baseline: HepG2 over blood-stage parasites	2.63
N#Cc1c(-c2ccco2)[n+]([O-])c2ccc(F)cc2[n+]1[O-]		K1 chloroquine-resistant		baseline: KB IC50 over K1 IC50	9.47
CCC1=C(C)C(=CNC2CCCCCCC2)N=C1c1ccc[nH]1		HepG2, D6		baseline: HepG2 IC50 over D6 IC50	337

A few entries again:
Compound	test	test system	conditions	scale	selectivity index
CCc1c(C)[nH]c(C=NC23CC4CC(CC(C4)C2)C3)c1C		HepG2, D6		baseline: HepG2 IC50 over D6 IC50	906
CCC1=C(C)C(c2ccc[nH]2)=NC1=CNC1CCCCCC1		HepG2, D6		baseline: HepG2 IC50 over D6 IC50	105
N#Cc1c(-c2ccco2)[n+]([O-])c2ccc(Cl)cc2[n+]1[O-]		3D7 chloroquine-sensitive		baseline: KB IC50 over 3D7 IC50	7.1
